Experimental data collected from several papers.
Every numbered part comes from another study and shows a few of its results, in no order. Changes are numbered by the printed parent chain.
UniProt Q6P3R8, sequence (whole entry, looked up): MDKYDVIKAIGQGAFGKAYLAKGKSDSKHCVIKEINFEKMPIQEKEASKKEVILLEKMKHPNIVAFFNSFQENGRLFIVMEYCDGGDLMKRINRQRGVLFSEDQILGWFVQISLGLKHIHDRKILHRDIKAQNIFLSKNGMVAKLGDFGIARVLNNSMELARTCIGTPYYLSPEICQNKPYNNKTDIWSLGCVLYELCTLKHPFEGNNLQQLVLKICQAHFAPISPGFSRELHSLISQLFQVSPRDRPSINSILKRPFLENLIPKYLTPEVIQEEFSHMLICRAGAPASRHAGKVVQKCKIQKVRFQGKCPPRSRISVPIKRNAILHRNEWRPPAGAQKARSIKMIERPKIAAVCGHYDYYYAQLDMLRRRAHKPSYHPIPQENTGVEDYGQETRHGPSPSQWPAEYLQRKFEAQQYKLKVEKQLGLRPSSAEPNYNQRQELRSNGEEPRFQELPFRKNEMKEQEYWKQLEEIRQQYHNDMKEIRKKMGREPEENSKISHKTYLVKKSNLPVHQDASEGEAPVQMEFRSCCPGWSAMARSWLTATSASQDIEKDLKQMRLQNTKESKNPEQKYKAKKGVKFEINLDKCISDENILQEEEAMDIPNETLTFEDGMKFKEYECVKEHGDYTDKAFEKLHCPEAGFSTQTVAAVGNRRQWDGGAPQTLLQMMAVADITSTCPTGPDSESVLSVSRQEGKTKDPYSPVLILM
UniProt P19784, sequence (whole entry, looked up): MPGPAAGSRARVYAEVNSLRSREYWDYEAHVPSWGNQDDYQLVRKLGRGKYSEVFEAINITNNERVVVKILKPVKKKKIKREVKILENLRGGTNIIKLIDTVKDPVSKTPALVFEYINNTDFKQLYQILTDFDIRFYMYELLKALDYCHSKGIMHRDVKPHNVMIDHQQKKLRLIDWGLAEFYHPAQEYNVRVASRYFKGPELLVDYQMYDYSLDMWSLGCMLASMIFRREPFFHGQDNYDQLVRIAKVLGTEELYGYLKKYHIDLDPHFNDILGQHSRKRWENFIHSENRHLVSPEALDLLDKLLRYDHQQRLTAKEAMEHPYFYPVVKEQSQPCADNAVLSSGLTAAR

Series 1 — target: NFIL3, bZIP domain (human); technique: DHFR protein complementation; sample: yeast; reference: wild-type JUN-FOS pair; reading: higher = stronger binding
Setting: single substitutions, most at no-binding floor
Parent: JUN, bZIP domain (human); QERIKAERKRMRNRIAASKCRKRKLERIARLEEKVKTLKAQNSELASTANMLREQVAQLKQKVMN; partner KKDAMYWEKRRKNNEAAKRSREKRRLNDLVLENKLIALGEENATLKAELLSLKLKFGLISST
Change | binding fitness [natural log]
T37C | -1.04
S43D | -1.49
S47R | -1.37
A57S | -1.5
T48R | -1.24
A29K | -1.24
E32K | -1.48
E44Q | -1.57

Series 2 — read-out: cell-free assay; technique: competition with immobilised ligand; concentration: 1 µM
Compound: O=C(Nc1cccnn1)N1CC(C/C=C/c2cncc(Oc3ccc(C(F)(F)F)cn3)n2)C1
target | remaining binding [%]
Receptor-type tyrosine-protein kinase FLT3 (FLT3, Homo sapiens, UniProt P36888, D835V/ITD) | 68
Casein kinase II subunit alpha' (CSNK2A2, Homo sapiens, UniProt P19784) | 100
Serine/threonine-protein kinase Nek5 (NEK5, Homo sapiens, UniProt Q6P3R8) | 100

Series 3 — read-out: enzyme activity; mode: inhibitor; concentration: 0.5 µM; reference: control
Target: Cyclin-dependent kinase 6, with cyclin D1 (CDK6, Homo sapiens, UniProt Q00534)
UniProt Q00534, sequence (whole entry, looked up): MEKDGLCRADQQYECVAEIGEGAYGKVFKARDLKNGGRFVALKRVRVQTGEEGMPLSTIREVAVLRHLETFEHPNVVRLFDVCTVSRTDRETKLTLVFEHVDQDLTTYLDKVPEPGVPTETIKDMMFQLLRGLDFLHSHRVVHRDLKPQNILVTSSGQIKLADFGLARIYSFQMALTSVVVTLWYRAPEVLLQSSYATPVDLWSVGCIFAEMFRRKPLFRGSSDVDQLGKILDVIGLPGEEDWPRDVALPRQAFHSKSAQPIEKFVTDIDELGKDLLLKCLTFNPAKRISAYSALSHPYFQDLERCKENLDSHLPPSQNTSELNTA
Compound | remaining activity
COc1cc2ncnc(Nc3ccc(F)c(Cl)c3)c2cc1OCCCN1CCOCC1 | 98.7%
O=C1NC(=O)C(c2cn(CCCn3ccnc3)c3ccccc23)=C1Nc1ccccc1 | 83.1%
Cn1c2ccccc2c2c3c(c4c5ccccc5n(CCC#N)c4c21)CNC3=O | 39.4%
N#CC(C#N)=C(N)/C(C#N)=C/c1ccc(O)cc1 | 91.3%
O=S(=O)(c1cccc2cnccc12)N1CCCNCC1 | 86.4%
O=C(O)c1ccc2c3c1cccc3c(=O)n1c3ccccc3nc21 | 90.6%
Nc1ncnc2n[nH]c(Nc3ccc(F)cc3)c12 | 96.6%
O=C(CCCc1ccc(-c2ccccc2F)cc1)Nc1ccc(O)cc1 | 98.2%
COc1cc2ncnc(Nc3ccc(Oc4ccccc4)cc3)c2cc1OC | 95.1%
COc1ccc(C(=O)Nc2sc3c(c2C(N)=O)CCCC3)cc1OC | 95.1%
COc1ccc(CNC(=O)Nc2ncc([N+](=O)[O-])s2)cc1 | 98.6%
Cc1cccc(-c2[nH]c(C(C)(C)C)nc2-c2ccc3c(c2)OCO3)n1 | 95.2%
CNC(=O)c1cc(Oc2ccc(NC(=O)Nc3ccc(Cl)c(C(F)(F)F)c3)cc2)ccn1 | 91.8%
CCOC(=O)c1c(C)[nH]c(/C=C2\C(=O)Nc3ccccc32)c1C | 89.7%

Series 4 — technique: DHFR PCA, deep sequencing; sample: yeast; added: (+)-ABA 0 µM; reference: wild-type fitted maximum; reading: higher = stronger binding
Target: ABI1, truncated, D143A, DHFR fusion (Arabidopsis thaliana)
Setting: methotrexate growth selection, single substitutions
Parent: PYL1, truncated, DHFR fusion (Arabidopsis thaliana); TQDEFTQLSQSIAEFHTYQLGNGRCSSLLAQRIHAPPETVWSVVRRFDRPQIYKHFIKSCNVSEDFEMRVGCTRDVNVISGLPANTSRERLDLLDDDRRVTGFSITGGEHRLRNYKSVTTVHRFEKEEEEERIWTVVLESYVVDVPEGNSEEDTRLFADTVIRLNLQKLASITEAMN
Change | relative binding score [%]
L29K | 4.24
S27L | -1.16
L82S | 7.63
S104C | -0.644
G107Q | 14.1
Q2A | 43.1
V145F | -21.4
N77R | 48.1

Repeated from above (series 1):
Change | binding fitness [natural log]
A57S | -1.5
T48R | -1.24
A29K | -1.24
E32K | -1.48
E44Q | -1.57
